Experimental data collected from several papers.
Each numbered part is a random draw from the data of one study; scales do not carry over between parts. Substitutions count along the parent as printed.

Series 1
Target: ATF3, bZIP domain (human)
Method: DHFR protein complementation
Matrix: yeast
Notes: single substitutions, most at no-binding floor
Reference: wild-type JUN-FOS pair
Direction: higher = stronger binding
Parent: JUN, bZIP domain (human); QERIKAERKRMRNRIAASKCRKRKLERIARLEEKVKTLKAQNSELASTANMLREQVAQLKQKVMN; partner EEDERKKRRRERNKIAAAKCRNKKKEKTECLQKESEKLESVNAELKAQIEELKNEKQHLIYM
`L31D` gave a binding fitness of -0.788 natural log.
`K34P` has a binding fitness of -1.36 natural log.
For `I28E`, the binding fitness was -0.166 natural log.
The binding fitness of `S47L` is reported as -0.102 natural log.
For `A46S`, the binding fitness was -0.115 natural log.
The binding fitness of `L52E` is reported as -0.806 natural log.
For `L45N`, the binding fitness was -1.34 natural log.
The binding fitness of `L38P` is reported as -1.35 natural log.

Series 2
Target: Max dimerization protein 1, bHLH-zipper, MAX partner unstated (MXD1, Homo sapiens, UniProt Q05195, residues 56-136)
Method: protein-binding microarray
Form: double-stranded DNA, one strand shown
Matrix: in vitro
Concentration: not given
Notes: k-mer, scored over probes, only values ≥0.25
Direction: higher = stronger binding
Construct (chain): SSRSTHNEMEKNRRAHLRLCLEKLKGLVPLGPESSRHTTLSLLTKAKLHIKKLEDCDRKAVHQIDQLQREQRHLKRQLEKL
`CCATGAGA` has an E-score of 0.336.
With `ACATGGGA` the E-score was 0.302.
With `ACGCGCGA` the E-score was 0.259.
The E-score of `AGTCACAT` is reported as 0.278.
The E-score of `TGCGCACA` is reported as 0.313.
`CCGCCACC` gave an E-score of 0.275.
The E-score of `ACACGTTG` is reported as 0.408.
`AACGTGCT` has an E-score of 0.35.

Series 3
Target: Centromere-binding protein 1, full length, N-terminal tag (CBF1, Saccharomyces cerevisiae, UniProt P17106, residues 1-351)
Sequence of UniProt P17106 (whole entry, looked up): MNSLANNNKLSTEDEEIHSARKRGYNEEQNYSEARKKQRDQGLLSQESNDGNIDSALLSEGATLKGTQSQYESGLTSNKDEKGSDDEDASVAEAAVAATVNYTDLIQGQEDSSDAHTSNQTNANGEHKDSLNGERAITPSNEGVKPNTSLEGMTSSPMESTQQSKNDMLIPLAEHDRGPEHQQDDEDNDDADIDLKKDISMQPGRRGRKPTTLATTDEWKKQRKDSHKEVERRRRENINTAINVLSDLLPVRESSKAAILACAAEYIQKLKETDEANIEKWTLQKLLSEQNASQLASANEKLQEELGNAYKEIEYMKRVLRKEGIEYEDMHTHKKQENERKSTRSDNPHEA
Method: protein-binding microarray
Form: double-stranded DNA, one strand shown
Matrix: in vitro
Concentration: 0.8 µM
Notes: whole 60-bp probe, no competitor
Direction: higher = stronger binding
All sequences stand within: … GTCTTGATTCGCTTGACGCTGCTG
For `CTAAGAAAAGAACACCACGACTAATAAAACAAATTC`, the fluorescence intensity was 541 a.u.
The fluorescence intensity of `CTAGCAGTAATTCTCCACATGGGCCCAGCCACTTTC` is reported as 488 a.u.
With `CTAACCACCATAGGCACCACCACTGTTTGTGTATTC` the fluorescence intensity was 498 a.u.
The fluorescence intensity of `GAACTTATAAATTCACATGTGTCGGAGATCCACTAG` is reported as 711 a.u.
For `GAAGATATAAATACGAACGTGGTTAGTATATAGTAG`, the fluorescence intensity was 641 a.u.
`GAACCCCCTGAAAATGTGGTGTGGTTACTAAGCTAG` has a fluorescence intensity of 516 a.u.
With `GAATTGGGAAACAGTCATCAGATCTTATGGAAATAG` the fluorescence intensity was 578 a.u.
For `GAATTAAACAGGCATTACGTGGTGAACTCCAAGTAG`, the fluorescence intensity was 523 a.u.

Single results of other studies
`KVGFIMLFH`: binding “active” (HLA class I histocompatibility antigen, A alpha chain, allele A*80:01 (Homo sapiens, UniProt P04439); peptide-MHC binding; peptide; concentration not given).

A few entries again (series 2):
`CCGCCACC` gave an E-score of 0.275.
